Results pooled from the literature.
Parts stem from different laboratories: compare values within a part only. Changes are numbered by the printed parent chain.

Sample 1
Target: Interferon regulatory factor 5, full length, phosphomimetic (IRF5, Homo sapiens, UniProt Q13568-2, residues 1-514, K96S/S451D/S453D/S456D/S462D)
Method: protein-binding microarray
Molecule type: double-stranded DNA, one strand shown
Sample: in vitro
Concentration: 250 nM
Notes: 60-bp whole probe
Together with: salmon DNA 0.4 mg/ml
Baseline: random background probes
Reading: higher = stronger binding
Endpoint: log fluorescence
Shared flanks, not repeated: GCCTAGCAC … GTCTTGATTCGCTTGACGCTGCTG
GACGGTATCGAACTGGGGACGTGCTAG: 0.584 z-score
GAAGGTATCGACTTTCGGGACGTGCTA: 6.89 z-score
TTACAACTGGGGACTGGATTAGTGCTA: 0.0813 z-score
TCAGCTTCTTTTTTATTACTGTGCTAG: 0.682 z-score
TTAGGTATAGACTTTCGGTTAGTGCTA: 9.15 z-score
GACGGTTTCGACTATCGGTACGTGCTA: 8.42 z-score
GTGAGTCCCAAGAATGGTGTGGTGCTA: -0.478 z-score
GACGGTATCGGAGTGGGGACGTGCTAG: 0.636 z-score
CCATTTTGTGTTTTCATTTTGTGCTAG: 1.56 z-score
TCAAGTTTCTCCTTTGTACTGTGCTAG: 2.13 z-score
GACTATTTCAGACTGGAGACGTGCTAG: 0.0594 z-score
GACGATATAGGGTTTCGAGACGTGCTA: 1.45 z-score
TCAGGTTTCCAATCAGCACTGTGCTAG: 0.257 z-score
TAAGAACTGAGACTGGATTAGTGCTAG: -0.082 z-score
ATATCTTATCCTATCAGTTTGTGCTAG: 1.16 z-score
TTAGATTTCGGGTATCGATCAGTGCTA: 7.27 z-score

Sample 2
Target: RNA binding protein fox-1 homolog 2, RRM domain, GST-SBP tag (RBFOX2, Homo sapiens, UniProt O43251-10, residues 100-194)
Method: RNA Bind-n-Seq
Molecule type: RNA
Sample: in vitro
Concentration: 365 nM
Notes: natural RNA segment, single round, ends assumed
Baseline: no-protein control
Reading: higher = stronger binding
Endpoint: RBNS enrichment (R)
Shared flanks, not repeated: GGGAGUUCUACAGUCCGACGAUC … UGGAAUUCUCGGGUGCCAA
Residues (chain): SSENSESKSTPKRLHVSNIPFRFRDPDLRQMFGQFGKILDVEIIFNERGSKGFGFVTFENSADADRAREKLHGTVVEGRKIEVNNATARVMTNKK
CUCCCCCUGAGGUCACUUCCUGGUAGUGUCCCAAUGCUCUGUGUGCAGUUACUUCAGGUUGAAGUUGCCUUGAUCGCCUGCCCCUCAUCAGGGCUUUUGCUUUUCUUCAA: 2.49
GCAUCAAGGAAAAGGUAUGAUGCCGCCGCCGCCUAUGGGCAUGAUGCCGCCGCCUCCGCCACCUCCCAGUGGGCAGCCCCCGCCUCCUCCCUCUGGUCCUCUUCCUCCAU: 0.489
CAUUUAAAAAAAUGCCAUAACUAUUAAACACCUUGUUUACAGACAGAUGAAAUAAAUUUAUUCCAACAAAUACUCCAUUGGACUCCUGUUUUUAUUAUAAAUUUUUGGCU: 0.453
ACCUAGCAUCUUCGGGAAGAAAUGAUUCCAGUCUAUUGGCUGAUACUACAUUAGUUUCCCUUUCUGAUUCUUAAUCUGUAGUUCUUUGUUAUAUUUCACAAAAAAAAAAA: 0.678
AUGGAACACUCAGUGCCGUAGCCCAGGAAGGACUUGCGGUUUCUGAUAGUUCUGAAGGCAUGAGCAAGGCUUCAGAAAUGAUCACCACGCUUGCAGUUGAAAGUGCCAGU: 0.519
GAUUUCAGGAGAACCUAACAUGCUGGUGAAUAUUUUCAACUUUUUCCCUCACUAAUUGGUACUUUUAAAAACAUAACAUAAAUUUUUUGAAGUCUUUAAUAAAUAACCCA: 0.34
UGAGUGGGGGGAAGGGCAGCUGUUAUCUUGCCAAGCCUGGUUGUAAUUUGUAACCAUUUUCUAUUUGUUCGAACUCUGUAAAUAAUAUGUUUAAAGAUGUAAUAUUUUGU: 0.627
UCUAACCCACGCCGGGAUAUCCCUACACCUUCCCAGGGCUUUUAUGUCAGAUGCACCCAAGUCCUUAGCCCAUCUGUGCCACUGCAAGAGUCUGCUCUUGUAUUUCUUUC: 0.807
GCCGCCGCCAACGACUCCAUCCCUGUCGGUCCUGAGCCGGGCCCACCCAAUCCUGCCCCCUGCCCAGGAAGAGCUGCCUGGGCCAGUUACCCCAAGGCCUGAGGACCCUC: 0.529
UCUGCCAAAAGCAUUGUUUUCCAGGGCCCUUGACCAACAUCGGCUUCCCCAGUCCAGGGCUCCCCUGCUCCUUUCCCUUCCCUGUACUGGGGUAGCUCCUGCCUGCUCUC: 1.14
GCUCUCUGUGGGGGAAGUGUCACAGUUGGUGGUGUCCCCUCUGUGUGGUGCAGUGUCUCUCUUUGUAGGGACUACAAGAAAUAACUUUGAAGGCAAGAAAGUCAUUAGCU: 0.558
UUUAUCCUGUAUUUAUAUGUUGUACACAGUACUGGCCAAUUCUGUAAAUGGAUGUAUUGUACAGAGAACACGAACGUCUCUUCCUUAUUUUACGUCUUCAGCACCCUUGA: 0.47

Sample 3
Target: CCNB2, cyclin fold, Cln2 fusion (human)
Method: yeast growth competition, sequencing
Sample: yeast
Notes: weak parent motif
Baseline: not given
Reading: higher = stronger binding
Endpoint: normalised enrichment score
Starting sequence: CDKN1B docking peptide (human); PSACRNLFGPVDH; partner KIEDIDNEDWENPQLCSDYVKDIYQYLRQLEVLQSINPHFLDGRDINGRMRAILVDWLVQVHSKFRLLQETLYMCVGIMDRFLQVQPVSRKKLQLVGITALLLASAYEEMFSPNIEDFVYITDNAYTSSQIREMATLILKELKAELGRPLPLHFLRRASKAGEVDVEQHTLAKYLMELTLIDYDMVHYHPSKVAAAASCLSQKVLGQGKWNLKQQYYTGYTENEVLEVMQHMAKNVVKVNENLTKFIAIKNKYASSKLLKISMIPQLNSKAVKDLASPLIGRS
PSACRNLFIPVDH [G9I]: 0.183
PSHCRNLFGPVDH [A3H]: -0.196
PSACRNLFGPVHH [D12H]: 0.222
PSACANAFGPVDH [R5A L7A]: -0.0757
PSACRNLFGWVDH [P10W]: 0.194
PSACRNLMGPVDH [F8M]: -0.136
PSACRNLFGPHDH [V11H]: 0.515
PSACRNLFGPTDH [V11T]: -0.0952
PSACRNLFGPVLH [D12L]: 0.227
PSACRNLFGPIDH [V11I]: 0.134
PSACRILFGPVDH [N6I]: -0.0386
PSACRNLFGPCDH [V11C]: -0.327
PSACLNLFGPVDH [R5L]: -0.236
PSACRELFGPVDH [N6E]: -0.0363
PSACMNLFGPVDH [R5M]: -0.331
PSACRNLFGPVQH [D12Q]: 0.54
PSCCRNLFGPVDH [A3C]: -0.271
PSACRNLFGPVCH [D12C]: 0.53
PSACRNLFGFVDH [P10F]: 0.0925
CSACRNLFGPVDH [P1C]: -0.554
RSACRNLFGPVDH [P1R]: 0.188
PSACRNLFGPVDV [H13V]: -0.301
PPACRNLFGPVDH [S2P]: -0.104
PSACRNLFQPVDH [G9Q]: 0.149
PSKCRNLFGPVDH [A3K]: 0.151

Sample 4
Target: Centromere-binding protein 1, full length, N-terminal tag (CBF1, Saccharomyces cerevisiae, UniProt P17106, residues 1-351)
Chain of UniProt P17106 (whole entry, looked up): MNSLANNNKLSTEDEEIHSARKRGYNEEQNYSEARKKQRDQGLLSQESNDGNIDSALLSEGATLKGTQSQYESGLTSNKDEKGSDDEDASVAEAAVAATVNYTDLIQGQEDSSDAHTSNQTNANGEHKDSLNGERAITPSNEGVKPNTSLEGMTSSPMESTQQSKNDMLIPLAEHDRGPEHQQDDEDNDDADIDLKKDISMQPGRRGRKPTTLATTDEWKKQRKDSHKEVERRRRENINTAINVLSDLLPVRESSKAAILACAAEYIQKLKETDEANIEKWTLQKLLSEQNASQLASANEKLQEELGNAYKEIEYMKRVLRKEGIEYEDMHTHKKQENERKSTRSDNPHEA
Method: protein-binding microarray
Molecule type: double-stranded DNA, one strand shown
Sample: in vitro
Concentration: 0.8 µM
Notes: whole 60-bp probe, no competitor
Reading: higher = stronger binding
Endpoint: fluorescence intensity
Shared flanks, not repeated: … GTCTTGATTCGCTTGACGCTGCTG
GAAGTGCTACCCGCGCACGTGATTAAAAGGAAATAG: 14400 a.u.
CTAAGTTGACGAGTTCACGTTCATTCTTCCTTGTTC: 546 a.u.
CTATAACATTAAGGTCATGTGTTGATAGCAGGTTTC: 2020 a.u.
GAATTATACATCTGTCACGTAAACCATTGAAAATAG: 632 a.u.
GAATAAATCGTATGTTACGTGTATGCAAGTCGCTAG: 513 a.u.
CTAAAGTTTGATTGTCACGGTCATCTGAGATATTTC: 776 a.u.
GAAAGATACGGTATGCCCGTGTATTTATCCTCCTAG: 483 a.u.
CCTAACTACTATATGCATGTGCTATAGCTTCGTACA: 682 a.u.
CTATGAATGCCGGGCCGCGTGGCGTCTGTAGCTTTC: 608 a.u.
CTACAAGCGACCGTACATGTGGCATTTTCCACTTTC: 595 a.u.
CCTAACTACTATAAATACGTCACATAGCTTCGTACA: 577 a.u.
GAAACTCATTATACCGTGATTACCAATTTCCCATAG: 679 a.u.
CTAATTTCACTGATTCACGTTTTCTACTTTGTTTTC: 613 a.u.
TGTACGAAGCTATCACACGTGACTATAGTAGTTAGG: 11900 a.u.
CCTAACTACTATAGTCATCTGATATAGCTTCGTACA: 1000 a.u.
GAATACAAGCCGTGTGGGGTGATTACGCCGTACTAG: 527 a.u.
GAAGCGGTAATTCAACACGTGAATTTCAGCTATTAG: 2830 a.u.
GAACCTAAGTCAGGGCACGCTTGCTTTGTTTCTTAG: 500 a.u.
CTACGGTACCTATATACCACCAGAAGTATGTGTTTC: 497 a.u.
CCTAACTACTATAAAAACGTGTAATAGCTTCGTACA: 527 a.u.
GAAGGGAGAGCACAGCACGTTCTGCTTAAAAAATAG: 634 a.u.
CTAATATGTATAAGAAAGGTGACCTACCCCCTTTTC: 509 a.u.
TGTACGAAGCTATTTTACCTGATTATAGTAGTTAGG: 519 a.u.
GAAGGCACACGAAGCGGCCACGTGGGTCTGCGATAG: 3720 a.u.
GAACAGATCCAGCGAGGCACGTGCTCTTTCCACTAG: 12300 a.u.

Some of these lines once more (sample 3):
PSACRNLMGPVDH [F8M]: -0.136
PSACRILFGPVDH [N6I]: -0.0386
PSACRNLFGPVQH [D12Q]: 0.54
PSACRNLFGPVLH [D12L]: 0.227
PSACRNLFGPCDH [V11C]: -0.327
PSACRNLFGWVDH [P10W]: 0.194
PSACRNLFIPVDH [G9I]: 0.183
PSACLNLFGPVDH [R5L]: -0.236
PSACRNLFQPVDH [G9Q]: 0.149
PSCCRNLFGPVDH [A3C]: -0.271
